Results from different studies.
Protocols differ between the studies behind these lines. Values joined by “and” are separate records of one study, mostly repeats; a detail may differ. pEC50, pIC50: −log10 of the molar value.

| SMILES | target or system | assay | system | setting | how to read | measurement | result |
| --- | --- | --- | --- | --- | --- | --- | --- |
| CN(C)c1ccc(O)c2c1C[C@H]1C[C@H]3[C@H](N(C)C)C(O)=C(C(N)=O)C(=O)[C@@]3(O)C(O)=C1C2=O | Brugia malayi |  | SCID mouse | x28d dosing, 6 weeks post-treatment |  | mice with adult worms | 60% |
| CC1=C(Cc2cn(CCN3CCNCC3)nn2)C(=O)c2ccccc2C1=O | Schistosoma mansoni |  | adult worms | 25 µM, 72 h |  | killing | 50% |
| OC(CCN1CCCCC1)(c1ccccc1)C1CC2C=CC1C2 (stereo not shown) |  | resting-state EEG | healthy elderly humans | oral, 4 mg, eyes closed, LS mean | baseline: baseline | change, Gamma power, EEG Pz-O1 | 3.1% |
| C[C@H](Oc1ccc(Br)cc1-c1ccon1)C(=O)O |  | handgrip dynamometry | healthy human males | 400 mg once daily, multiple doses | baseline: placebo | peak grip force | 1.5 kg |
| N#Cc1ccn2c(-c3ccncc3)c(-c3ccc(F)cc3)nc2c1 |  | kinase binding, competitor, MIB/MS competition, item: KIN2 | Candida albicans cell lysate | 1 µM | baseline: DMSO | log2 fold change | -0.202 |
| CC1=C(Cc2cn(CCN3CCOCC3)nn2)C(=O)c2ccccc2C1=O | Schistosoma mansoni |  | adult worms | 25 µM, 48 h |  | killing | 43.5% |
| COc1cnc2cccc(N3CCc4c(cc(Cn5ccnc5C)cc4-c4cn(C)nc4C(F)(F)F)C3=O)c2c1 | COLO 201 | cell growth, inhibitor |  | 120 h |  | pEC50 | 6.11 |
| CC(C)c1c(C(=O)Nc2ccccc2)c(-c2ccccc2)c(-c2ccc(F)cc2)n1CC[C@@H](O)C[C@@H](O)CC(=O)O | Nedd8-cullin1 interaction | neddylation, AlphaScreen |  | 100 µM |  | inhibition | -43.5% |
| COc1ccc(Nc2cnnc3cc(-c4cnc(N5CCN(C)CC5)nc4)ccc23)cc1Cl | Schistosoma mansoni |  | adult worms | 10 µM, 24 h | direction not given | phenotypic severity score | 1 |
| CCCC(=O)OCOC(=O)C1=C(C)NC(C)=C(C(=O)OC)C1c1cccc(Cl)c1Cl (stereo not shown) | Nedd8-cullin1 interaction | neddylation, AlphaScreen |  | 100 µM |  | inhibition | 28.9% |
| O=C(O)CNC(=O)Cc1ccccc1 |  |  | ventricular cardiomyocytes, C57BL/6 mouse | dose not given, 0.116 s |  | sarcomere length | 1.72 µm |
| COc1c(C)cnc(Cn2cnc3c(Cl)nc(N)nc32)c1C | HD-MB03 | cell growth |  | 168 h, single agent |  | pIC50 | 6.85 |
| CC(C)NCC(O)c1ccc(O)c(O)c1 (stereo not shown) |  |  | ventricular cardiomyocytes, C57BL/6 mouse | dose not given, 0.168 s |  | sarcomere length | 1.52 µm |
| CC1=C(Cn2cc(CBr)nn2)C(=O)c2ccccc2C1=O | Schistosoma mansoni |  | adult worms | 10 µM, 24 h |  | killing | 38.4% |
| CN1CCN(c2ccc(-c3ccc4nncc(Nc5cnccn5)c4c3)cc2)CC1 | Schistosoma mansoni |  | adult worms | 10 µM, 48 h | direction not given | phenotypic severity score | 1 |
| CC1=C(Cc2cn(CCN3CCC(F)(F)CC3)nn2)C(=O)c2ccccc2C1=O | Schistosoma mansoni |  | adult worms | 25 µM, 24 h |  | killing | 41.3% |
| CN1CCN(c2ccc(-c3ccc4nncc(Nc5ncccn5)c4c3)cc2)CC1 | Schistosoma mansoni |  | adult worms | 10 µM, 48 h | direction not given | phenotypic severity score | 0 |
| CC1=C(Cn2ccnc2[N+](=O)[O-])C(=O)c2ccccc2C1=O | Schistosoma mansoni |  | adult worms | 10 µM, 48 h |  | killing | 43.5% |
| Cn1cc(-c2ccc(-c3cncc(Cl)c3N3CCC4(CCNC4=O)CC3)cc2)cn1 | COLO 205 | gene expression, microarray, item: FAS mRNA |  | concentration not given, 6 h | baseline: untreated cells | log2 fold change | 4.15 |
| NC(=O)c1cnc2[nH]ccc2c1N[C@@H]1[C@@H]2CC3C[C@H]1C[C@@](O)(C3)C2 |  | CD4+ effector T cells, flow cytometry | Caucasian humans, peripheral blood | 60 mg single dose | baseline: baseline | percent change | 0.03% |

| SMILES | target or system | assay | system | setting | how to read | measurement | result |
| --- | --- | --- | --- | --- | --- | --- | --- |
| C[C@H](N[C@@H](CCc1ccccc1)C(=O)O)C(=O)N1CCC[C@H]1C(=O)O | Nedd8-cullin1 interaction | neddylation, AlphaScreen |  | 100 µM |  | inhibition | 14.6% |
| CCn1cc(-c2cc(Cn3ccoc3=N)cc3c2CCN([C@@H](C)c2cc(OC)ccn2)C3=O)c(C(F)(F)F)n1 | Toledo | cell growth |  | 120 h |  | pEC50 | 6.73 |
| COc1cc(OC)c(C(=O)CCCN2CCCC2)c(OC)c1.Cl | Nedd8-cullin1 interaction | neddylation, AlphaScreen |  | 100 µM |  | inhibition | -15.8% |
| Cc1c(CN2CCN(C(=O)[C@H](C)O)CC2)sc2c(N3CCOCC3)nc(-c3cnc(N)nc3)nc12 | phospho-Akt | Akt phosphorylation, inhibitor | human patients with prostate tumour, plasma | PK-PD study |  | IC50 | 8.3 ng/mL |
| CC1=C(Cc2cn(CCO)nn2)C(=O)c2ccccc2C1=O | Schistosoma mansoni |  | adult worms | 10 µM, 24 h |  | killing | 44.9% |
| COc1ccc(Nc2cnnc3ccc(-c4cnc(N5CCCN(C)CC5)nc4)cc23)cc1Cl | Schistosoma mansoni |  | adult worms | 10 µM, 24 h | direction not given | phenotypic severity score | 2 |
| Cn1c(NCCN(CCO)CCCc2ccc([N+](=O)[O-])cc2)cc(=O)n(C)c1=O | Nedd8-cullin1 interaction | neddylation, AlphaScreen |  | 100 µM |  | inhibition | 19.6% |
| COc1ccc(Nc2cnnc3ccc(-c4cnc(N5CCN(C)CC5)nc4)cc23)cc1Cl | Schistosoma mansoni |  | adult worms | 10 µM, 48 h | direction not given | phenotypic severity score | 0 |
| CCCOC(=O)c1cc(O)c(O)c(O)c1 | Nedd8-cullin1 interaction | neddylation, AlphaScreen |  | 100 µM |  | inhibition | 8.39% |
| COc1ccc(Nc2cnnc3cc(-c4cnc(N5CCCN(C)CC5)nc4)ccc23)cc1Cl | Schistosoma mansoni |  | adult worms | 10 µM, 48 h | direction not given | phenotypic severity score | 0 |
| c1ccc(CC2=NCCN2)cc1 | Nedd8-cullin1 interaction | neddylation, AlphaScreen |  | 100 µM |  | inhibition | 34.9% and 33.3% |
| O=C(/C=C/C=C/C=C/C1CCCCC1)NC1=C[C@@](O)(/C=C/C=C/C=C/C(=O)NC2=C(O)CCC2=O)[C@@H]2O[C@@H]2C1=O | NCI-H2030 | cell growth, CellTiter-Glo |  | 78 h |  | GI50 | > 30000 nM |
| CN1CCN(c2ncc(-c3ccc4nncc(Nc5ncccn5)c4c3)cn2)CC1 | Schistosoma mansoni |  | adult worms | 10 µM, 24 h | direction not given | phenotypic severity score | 1 |
| CC1=C(Cn2cc(CO)nn2)C(=O)c2ccccc2C1=O | Schistosoma mansoni |  | adult worms | 25 µM, 24 h |  | killing | 44% |
| CCn1cc(-c2cc(Cn3ccnc3)cc3c2CCN([C@H](c2cc(OC)ccn2)C2CC2)C3=O)c(C(F)(F)F)n1 | COLO 201 | cell growth, inhibitor |  | 120 h |  | pEC50 | < 4.52 |
| CC1=C(Cn2cncn2)C(=O)c2ccccc2C1=O | Schistosoma mansoni |  | adult worms | 10 µM, 24 h |  | killing | 40.8% |
| CC[C@]1(O)C[C@H]2CN(CCc3c([nH]c4ccccc34)[C@@](C(=O)OC)(c3cc4c(cc3OC)N(C=O)[C@H]3[C@@](O)(C(=O)OC)[C@H](OC(C)=O)[C@]5(CC)C=CCN6CC[C@]43[C@@H]65)C2)C1 | HD-MB03 | cell growth |  | 168 h, single agent |  | pIC50 | 7.98 |
| CNC[C@H](O)c1ccc(O)c(O)c1.Cl | Nedd8-cullin1 interaction | neddylation, AlphaScreen |  | 100 µM |  | inhibition | 19.6% |
| CN1CCN(S(=O)(=O)c2ccc(-c3ccc4nncc(Nc5cnccn5)c4c3)cc2)CC1 | Schistosoma mansoni |  | adult worms | 10 µM, 1 h | direction not given | phenotypic severity score | 0 |
| COc1cc(Br)c(Nc2nc(-c3c(C)nc4ncccn34)cs2)c(Br)c1 | HD-MB03 | cell growth |  | single agent |  | pIC50 | 6.33 |

A few entries again:
| SMILES | target or system | assay | system | setting | how to read | measurement | result |
| --- | --- | --- | --- | --- | --- | --- | --- |
| CCCC(=O)OCOC(=O)C1=C(C)NC(C)=C(C(=O)OC)C1c1cccc(Cl)c1Cl (stereo not shown) | Nedd8-cullin1 interaction | neddylation, AlphaScreen |  | 100 µM |  | inhibition | 28.9% |
| COc1cnc2cccc(N3CCc4c(cc(Cn5ccnc5C)cc4-c4cn(C)nc4C(F)(F)F)C3=O)c2c1 | COLO 201 | cell growth, inhibitor |  | 120 h |  | pEC50 | 6.11 |
| COc1cc(Br)c(Nc2nc(-c3c(C)nc4ncccn34)cs2)c(Br)c1 | HD-MB03 | cell growth |  | single agent |  | pIC50 | 6.33 |
| CC1=C(Cn2cc(CO)nn2)C(=O)c2ccccc2C1=O | Schistosoma mansoni |  | adult worms | 25 µM, 24 h |  | killing | 44% |
